Results gathered from unrelated publications.
Compare with care: the assays were run in different laboratories. ± marks the error that the study gave. Bridges are numbered along the chain shown (N, C = ends). Where no end group is shown, it is not given here.
Chain of UniProt O60656 (whole entry, looked up): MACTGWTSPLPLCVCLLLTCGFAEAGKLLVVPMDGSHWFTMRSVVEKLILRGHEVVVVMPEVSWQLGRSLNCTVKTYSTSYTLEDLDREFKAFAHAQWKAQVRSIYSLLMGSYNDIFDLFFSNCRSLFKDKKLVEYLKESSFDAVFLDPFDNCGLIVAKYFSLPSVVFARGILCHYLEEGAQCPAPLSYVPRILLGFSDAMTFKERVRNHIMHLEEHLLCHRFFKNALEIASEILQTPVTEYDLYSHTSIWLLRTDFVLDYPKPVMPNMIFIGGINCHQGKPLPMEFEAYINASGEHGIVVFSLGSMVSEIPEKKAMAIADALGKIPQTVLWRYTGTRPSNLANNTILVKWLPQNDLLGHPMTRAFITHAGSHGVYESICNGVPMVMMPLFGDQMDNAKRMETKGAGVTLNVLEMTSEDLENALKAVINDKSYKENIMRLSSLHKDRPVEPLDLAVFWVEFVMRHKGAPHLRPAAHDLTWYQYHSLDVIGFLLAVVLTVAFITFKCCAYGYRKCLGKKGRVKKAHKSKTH

insulin glulisine — mean duration of action (euglycemic clamp; healthy volunteers; subcutaneous, 0.15 U/kg, 8 h): 189 ± 33 min
Polymyxin B — TNF-α release (human whole blood; 50 ng/mL, 4 h, 37 °C, added: E. coli LPS 0.5 ng/mL; relative to: LPS without compound): 12.6 ± 5.9%
CO[C@@H]1[C@H](N(C)C(=O)c2ccccc2)C[C@H]2O[C@]1(C)n1c3ccccc3c3c4c(c5c6ccccc6n2c5c31)C(=O)NC4 — CR after first induction cycle (newly diagnosed FLT3-mutant AML patients; oral, 50 mg twice daily, added: daunorubicin/cytarabine induction chemotherapy; relative to: CR patients): 75%
gamma-MSH — heart rate response onset time (Sprague Dawley rat, urethane-anaesthetised; intravenous, 15 nmol): 22 ± 3.26 s
COc1ccc2c(c1)c(CC(=O)O)c(C)n2C(=O)c1ccc(Cl)cc1 — cytokine level (multiplex bead immunoassay, refers to: IL-10; CD-1 mice, serum; ip, 20 mg/kg, three-injection regimen, added: LPS 3 mg/kg): 48.3 ± 13.3 pg/mL
CC(C)C[C@H](NC(=O)[C@H](CO)NC(=O)[C@H](CCCNC(=N)N)NC(=O)[C@H](CC(=O)O)NC(=O)[C@H](CCC(=O)O)NC(=O)[C@H](C)NC(=O)[C@@H]1CCCN1C(=O)[C@H](C)NC(=O)[C@H](CCC(=O)O)NC(=O)[C@@H]1CCCN1C(=O)[C@@H]1CCCN1)C(N)=O — dopamine level (HPLC-EC; F344 rat, normal, striatum, wet tissue, both hemispheres; intranasal, 300 µg, 5 days/week for 3 weeks): 11900 ± 904 ng/g
CCCCCCCCCCCCCCCC(=O)NCCCC[C@H](NC(=O)[C@H](CCC(=O)O)NC(=O)[C@H](CCC(=O)O)NC(=O)[C@H](Cc1ccc(O)cc1)NC(=O)[C@H](CCC(=O)O)NC(=O)CCCCCNC(=S)Nc1ccc2c(c1)C(=O)OC21c2ccc(O)cc2Oc2cc(O)ccc21)C(=O)N[C@@H](Cc1ccc(O)cc1)C(=O)N[C@@H](CCC(=O)O)C(=O)NCC(=O)NCC(=O)NCC(=O)NCC(=O)N[C@@H](CO)C(=O)NCC(=O)NCC(=O)NCC(=O)NCC(=O)N[C@@H](CO)C(=O)N[C@@H](Cc1ccccc1)C(=O)N[C@@H](CC(N)=O)C(=O)N1CCC[C@H]1C(=O)N[C@@H](CCCNC(=N)N)C(=O)N[C@@H](Cc1c[nH]cn1)C(=O)NC(C)(C)C(=O)N[C@@H](CCC(=O)O)C(=O)NCC(=O)N[C@H](C(=O)N[C@@H](Cc1ccccc1)C(=O)N[C@H](C(=O)N[C@@H](CO)C(=O)N[C@@H](CC(=O)O)C(=O)N[C@H](C(=O)N[C@@H](CO)C(=O)N[C@@H](CO)C(=O)N[C@@H](Cc1ccc(O)cc1)C(=O)N[C@@H](CC(C)C)C(=O)N[C@@H](CCC(=O)O)C(=O)NCC(=O)N[C@@H](CCC(N)=O)C(=O)N[C@@H](C)C(=O)N[C@@H](C)C(=O)N[C@@H](CCCCN)C(=O)N[C@@H](CCC(=O)O)C(=O)N[C@@H](Cc1ccccc1)C(=O)N[C@H](C(=O)N[C@@H](C)C(=O)N[C@@H](Cc1c[nH]c2ccccc12)C(=O)N[C@@H](CC(C)C)C(=O)N[C@H](C(=O)N[C@@H](CCCCN)C(=O)NCC(=O)N[C@@H](CCCNC(=N)N)C(=O)NCC(=O)O)C(C)C)[C@@H](C)CC)C(C)C)[C@@H](C)O)[C@@H](C)O — LDL/HDL ratio (db/db mouse; subcutaneous, 90 nmol/kg twice weekly, 8 weeks): 0.35 ± 0.13
CRWYDENAC (disulfide 1-9 (inferred)) (Cy7-labelled, cyclic, disulfide) — time to peak PA signal (photoacoustic imaging; mouse, subcutaneous HCCLM3 tumour; iv, 20 nM): 24 h
CS/C(S)=N/CCCC[S+](C)[O-] (racemic) — mRNA fold change (RT-PCR, refers to: Gad2; rat, colon; oral gavage, 200 mg/kg, 96 h, dosed for four days; relative to: vehicle): 9.18
UGT1A9 (Homo sapiens, UniProt O60656) — Vmax (O=c1cc(-c2ccccc2)oc2cc(O)cc(O)c12; steady-state kinetics; pH 7.4, 37 °C): 0.00454 µmol/min/mg
CC[C@H](C)[C@H](NC(=O)[C@H](Cc1ccc(O)cc1)NC(=O)[C@H](CCC(=O)O)NC(=O)[C@H](CCCNC(=N)N)NC(=O)[C@@H](NC(=O)[C@H](Cc1c[nH]c2ccccc12)NC(=O)[C@H](CCCCN)NC(=O)[C@H](CCCCN)NC(=O)[C@H](CCC(=O)O)NC(=O)CNC(=O)CON=C(C)CCCC(=O)NCCCC[C@@H]1NC(=O)[C@H](CCC(=O)O)NC(=O)[C@H](CCCCNC(=O)CCCC(C)=NOCC(=O)NCC(=O)N[C@@H](CCC(=O)O)C(=O)N[C@@H](CCCCN)C(=O)N[C@@H](CCCCN)C(=O)N[C@@H](Cc2c[nH]c3ccccc23)C(=O)N[C@H](C(=O)N[C@@H](CCCNC(=N)N)C(=O)N[C@@H](CCC(=O)O)C(=O)N[C@@H](Cc2ccc(O)cc2)C(=O)N[C@H](C(=O)N[C@@H](CC(N)=O)C(=O)N[C@@H](CO)C(=O)N[C@@H](CC(C)C)C(=O)N[C@@H](CCC(=O)O)C(=O)N[C@@H](CCSC)C(=O)N[C@@H](CO)C(=O)O)[C@@H](C)CC)C(C)C)NC(=O)[C@@H]2CCCN2C(=O)[C@H](CSCC(N)=O)NC(=O)[C@H](CCCCNC(=O)CCCC(C)=NOCC(=O)NCC(=O)N[C@@H](CCC(=O)O)C(=O)N[C@@H](CCCCN)C(=O)N[C@@H](CCCCN)C(=O)N[C@@H](Cc2c[nH]c3ccccc23)C(=O)N[C@H](C(=O)N[C@@H](CCCNC(=N)N)C(=O)N[C@@H](CCC(=O)O)C(=O)N[C@@H](Cc2ccc(O)cc2)C(=O)N[C@H](C(=O)N[C@@H](CC(N)=O)C(=O)N[C@@H](CO)C(=O)N[C@@H](CC(C)C)C(=O)N[C@@H](CCC(=O)O)C(=O)N[C@@H](CCSC)C(=O)N[C@@H](CO)C(=O)O)[C@@H](C)CC)C(C)C)NC(=O)[C@H](CCCCN)NC(=O)[C@H](CCCCNC(=O)CCCC(C)=NOCC(=O)NCC(=O)N[C@@H](CCC(=O)O)C(=O)N[C@@H](CCCCN)C(=O)N[C@@H](CCCCN)C(=O)N[C@@H](Cc2c[nH]c3ccccc23)C(=O)N[C@H](C(=O)N[C@@H](CCCNC(=N)N)C(=O)N[C@@H](CCC(=O)O)C(=O)N[C@@H](Cc2ccc(O)cc2)C(=O)N[C@H](C(=O)N[C@@H](CC(N)=O)C(=O)N[C@@H](CO)C(=O)N[C@@H](CC(C)C)C(=O)N[C@@H](CCC(=O)O)C(=O)N[C@@H](CCSC)C(=O)N[C@@H](CO)C(=O)O)[C@@H](C)CC)C(C)C)NC(=O)[C@@H]2CCCN2C(=O)CNC1=O)C(C)C)C(=O)N[C@@H](CC(N)=O)C(=O)N[C@@H](CO)C(=O)N[C@@H](CC(C)C)C(=O)N[C@@H](CCC(=O)O)C(=O)N[C@@H](CCSC)C(=O)N[C@@H](CO)C(=O)O — platelet aggregation (multiple electrode aggregometry; human blood; 5 µM, 1 h, added: cangrelor 0.34 µg/mL, CXCL12 with or without collagen; relative to: cangrelor alone): increased
CCCCN(CC)c1nc(C)nc2c1c(C)cn2-c1c(C)cc(C)cc1C — CREB phosphorylation (inhibitor, refers to: CREB phospho-Ser133; hippocampal pyramidal neurons, Sprague-Dawley rat pups; 100 nM, 30 min pretreatment, added: CRF 40 nM for 15 min): inhibited
CCOc1ccc(-c2nc(-c3cccc4c3CCC4NCCO)no2)cc1OCC (stereo not drawn) — ED50 (blood CD8+ cell count reduction, flow cytometry; mouse; intraperitoneal, 5 h): 2 mg/kg
Cc1ccc(-c2nn(-c3ccccc3)cc2C=NNC2=NC(=O)C(=C3c4ccccc4-c4nc5cc(F)ccc5nc43)S2)cc1 — blood glucose (mouse, STZ-induced diabetes; oral, 25 mg/kg, day 3): 343 ± 52.8 mg/dL
CC[C@H](C)[C@H](N)C(=O)N[C@@H](CC(C)C)C(=O)N1CCC[C@H]1C(=O)N[C@@H](Cc1c[nH]c2ccccc12)C(=O)N[C@@H](CCCCN)C(=O)N[C@@H](Cc1c[nH]c2ccccc12)C(=O)N1CCC[C@H]1C(=O)N[C@@H](Cc1c[nH]c2ccccc12)C(=O)N[C@@H](Cc1c[nH]c2ccccc12)C(=O)N1CCC[C@H]1C(=O)N[C@@H](Cc1c[nH]c2ccccc12)C(=O)N[C@@H](CCCNC(=N)N)C(=O)N[C@@H](CCCNC(=N)N)C(N)=O — leakage (carboxyfluorescein release; EYPG vesicles; 10 µg/mL, 250 s, pH 7.4, 25 °C; relative to: Triton X-100): 18%
O=C(NC[C@H]1CN(c2ccc(N3CCOCC3=O)cc2)C(=O)O1)c1ccc(Cl)s1 — prothrombin time AUC(0-48h) increase (human, mild renal impairment, plasma; oral, 10 mg, added: erythromycin at steady state; relative to: normal renal function, compound alone): ~75%
C=C1C2CCC(C2)C1(C)C (stereo not drawn) — proportion of food consumed (two-choice feeding trial; Sylvilagus nuttallii; 1% dry weight in diet, 72 h, added: monoterpene mixture 1% dry weight): 85 ± 0.04%
LRKLRKRLLRDWLKAFYDKVAEKLKEAF (N-acetyl, C-amide) — plasma inflammatory index (monocyte chemotactic activity; peptide, human aortic endothelial cells, female apoE-null mice; retro-orbital, 100 µg 3 times weekly for 15 days; relative to: human LDL): decreased
COc1ccc(Cl)cc1C(=O)NCCc1ccc(S(=O)(=O)NC(=O)NC2CCCCC2)cc1 — catalase activity (STZ-induced diabetic rat, liver; oral, 0.5 mg/kg, day 28): 39.1 ± 2.11 U/mg protein
CC(C)n1nc(-c2ccc3oc(N)nc3c2)c2c(N)ncnc21 — protein level (immunofluorescence, refers to: YB1, vimentin, CD44, MTA1; Pten L/L mouse, prostate PIN lesion epithelium; dose not given): decreased
Cc1cc(C)c(/C=C2\C(=O)Nc3ccccc32)[nH]1 — tumour area (MRI, enhancing lesion; human; concentration not given, 1.4 months): 4.4 cm²
CCOc1ccc(Cc2cc([C@@H]3O[C@H](SC)[C@@H](O)[C@H](O)[C@H]3O)ccc2Cl)cc1 — urinary glucose excretion (healthy Chinese subjects; oral, 200 mg once daily, 24 h, day 8): 38.3 g
O=C1CCc2ccc(OCc3nnc(SCc4ccc(Cl)cc4)o3)cc2N1 — immobility duration decrease (forced swimming test; mice; 40 mg/kg, 0.5 h; relative to: control): 57.1%
insulin lispro — maximum glucose infusion rate (euglycemic clamp; obese type 2 diabetic patients; subcutaneous, 50 units, 8 h): 2.5 mg/kg/min

Some of these lines once more:
COc1ccc(Cl)cc1C(=O)NCCc1ccc(S(=O)(=O)NC(=O)NC2CCCCC2)cc1 — catalase activity (STZ-induced diabetic rat, liver; oral, 0.5 mg/kg, day 28): 39.1 ± 2.11 U/mg protein
CC(C)n1nc(-c2ccc3oc(N)nc3c2)c2c(N)ncnc21 — protein level (immunofluorescence, refers to: YB1, vimentin, CD44, MTA1; Pten L/L mouse, prostate PIN lesion epithelium; dose not given): decreased
Cc1cc(C)c(/C=C2\C(=O)Nc3ccccc32)[nH]1 — tumour area (MRI, enhancing lesion; human; concentration not given, 1.4 months): 4.4 cm²
